Published values pooled from the literature.
Protocols differ between the studies behind these lines.
Organism: Mycobacterium tuberculosis

SMILES	effect on	technique	strain	time	notes	MIC
O=C(Nc1cc(Cl)cc(Cl)c1)NC12CC3CC(CC(C3)C1)C2	microbial growth	resazurin	H37RV	–	–	1.47 µM
Cc1ccc2nc(C)c(C(=O)NCc3ccc(S(F)(F)(F)(F)F)cc3)n2c1	microbial growth	resazurin	H37RV	–	–	0.007 µM
CO[C@H]1/C=C/O[C@@]2(C)Oc3c(C)c(O)c4c(O)c(c(/C=N/N5CCN(C)CC5)c(O)c4c3C2=O)NC(=O)/C(C)=C\C=C\[C@H](C)[C@H](O)[C@@H](C)[C@@H](O)[C@@H](C)[C@H](OC(C)=O)[C@@H]1C	microbial growth	resazurin	H37RV	7 days	–	0.411 µg/mL
O=C(NC(=O)c1cc2c(F)cc(F)cc2[nH]1)c1cccc(Cl)c1	–	microplate alamarBlue	H37Rv	–	–	> 32 µg/mL
CC[C@@H](CO)NCCN[C@@H](CC)CO	–	microplate Alamar Blue	H37Rv	–	–	30.6 µM
O=C(OCc1ccccc1)[C@@H]1COC(c2cccnc2)=N1	–	–	H37Rv	168 h	–	> 50 µM
Clc1ccc(-n2nnc3c2CCC2(C=Cc4cc(Cl)ccc4O2)C3)cc1 (centres unmarked)	microbial growth	resazurin	H37RV	7 days	–	25 µg/mL
CC1=NN(CNC(=O)c2ccccc2)C(=O)C1=NNn1c(-c2ccccc2)nc2ccccc2c1=O	microbial growth	resazurin	H37RV	–	–	6.49 µM
CC(NC(=O)c1cc2ccccc2[nH]1)C12CC3CC(CC(C3)C1)C2 (centres unmarked)	–	microplate alamarBlue	H37Rv	–	–	2 µg/mL
CCCCNc1oc2c(c1-c1ccc(Cl)cc1)C(=O)c1ccccc1C2=O	–	resazurin microplate	H37Rv	7 days + 24 h	–	84 µM
O=C1c2ccccc2NC(c2cc([N+](=O)[O-])ccc2O)N1/N=C/c1cc([N+](=O)[O-])ccc1O (centres unmarked)	microbial growth	–	ATCC25177 H37RA	–	–	142 µM
Cc1c(Cc2ccc([S+](C)[O-])cc2)c(=O)n2c([nH]c3ccccc32)c1C#N (centres unmarked)	microbial growth	resazurin	H37RV	–	–	2 µg/mL
Cc1[nH]c(=O)c(CNC(=O)c2ccc(Cl)nc2)c2c1CCCC2	microbial growth	resazurin	H37RV	–	–	4.9 µg/mL
N#Cc1cc2cccnc2nc1N1CCN(C(=O)CNc2ccccc2I)CC1	–	microplate Alamar Blue	H37Rv	–	–	50.2 µM
CC(C)(C)n1[se]c2ccccc2c1=O	microbial growth	resazurin	H37RV	–	–	25 µg/mL
N#Cc1cc2cccnc2nc1N1CCN(C(=O)CNc2ccc(Br)cc2)CC1	–	microplate Alamar Blue	H37Rv	–	–	55.4 µM
CC(NC(=O)c1cc2ccc(Br)cc2[nH]1)C12CC3CC(CC(C3)C1)C2 (centres unmarked)	–	microplate alamarBlue	H37Rv	–	–	0.25 µg/mL
O=C1NN=C(N=Cc2ccc(O)cc2O)C1=NNn1c(-c2ccccc2)nc2ccccc2c1=O	microbial growth	resazurin	H37RV	–	–	26.7 µM
O=C(NC1CCCCCCC1)c1ccc2ccccc2c1	microbial growth	resazurin	H37RV	–	–	≤ 4 µg/mL
COc1cc(OC)cc(-c2ccc(C(=O)NCc3c(C)c4c([nH]c3=O)CCCC4)cc2)c1	microbial growth	resazurin	H37RV	–	–	> 25 µg/mL
O=C1c2ccccc2C(=O)c2c1oc(NC1CCCCC1)c2-c1ccc(Cl)cc1	–	resazurin microplate	H37Rv	7 days + 24 h	–	39 µM
Cc1cccc(Cc2c(C)c(C#N)c3[nH]c4ccccc4n3c2=O)c1	microbial growth	resazurin	H37RV	–	–	8 µg/mL
N#Cc1cc2cccnc2nc1N1CCN(CC(=O)Nc2cccc(C(F)(F)F)c2)CC1	–	microplate Alamar Blue	H37Rv	–	–	28.4 µM
CC(C)=CCC/C(C)=C/CNCCNC1C2CC3CC(C2)CC1C3 (centres unmarked)	microbial growth	resazurin	ATCC35801 ERDMAN	–	–	≤ 0.39 µg/mL

SMILES	effect on	technique	strain	time	notes	MIC
N#Cc1cc2cccnc2nc1N1CCN(CC(=O)Nc2ccccc2[N+](=O)[O-])CC1	–	microplate Alamar Blue	H37Rv	–	–	29.9 µM
Cc1c(Cc2ccc(-c3ccccn3)cc2)c(=O)n2c([nH]c3ccccc32)c1C#N	microbial growth	resazurin	H37RV	–	–	4 µg/mL
CC(C)(C)Nc1oc2c(c1C1CCN(Cc3ccccc3)CC1)C(=O)c1ccccc1C2=O	–	resazurin microplate	H37Rv	7 days + 24 h	–	9 µM
Cc1c2c([nH]c(=O)c1CNC(=O)c1cccs1)CCCC2	microbial growth	resazurin	H37RV	–	–	> 50 µg/mL
Cc1cc2c(cc1Cl)C=CC1(CCc3c(nnn3Cc3ccccc3)C1)O2 (centres unmarked)	microbial growth	resazurin	H37RV	7 days	–	25 µg/mL
COc1cc(-c2c(NC(C)(C)C)oc3c2C(=O)c2ccccc2C3=O)cc(OC)c1OC	–	resazurin microplate	H37Rv	7 days + 24 h	–	> 147 µM
Cc1c(CNC(=O)c2ccc(C(F)(F)F)nc2)c(=O)[nH]c2ccccc12	microbial growth	resazurin	H37RV	–	–	> 50 µg/mL
CCCCNc1oc2c(c1-c1ccc([N+](=O)[O-])o1)C(=O)c1ccccc1C2=O	–	resazurin microplate	H37Rv	7 days + 24 h	–	84 µM
CO[C@H]1/C=C/O[C@@]2(C)Oc3c(C)c(O)c4c(O)c(c(/C=N/N5CCN(C)CC5)c(O)c4c3C2=O)NC(=O)/C(C)=C\C=C\[C@H](C)[C@H](O)[C@@H](C)[C@@H](O)[C@@H](C)[C@H](OC(C)=O)[C@@H]1C	–	microplate Alamar Blue	H37Rv	–	–	3.79 µM
Cc1c(-c2ccccc2)c(=O)n2c([nH]c3ccccc32)c1C#N	microbial growth	resazurin	H37RV	–	–	8 µg/mL
O=c1c2ccccc2[se]n1C1CCCC1	microbial growth	resazurin	H37RV	–	–	25 µg/mL
CC(C)c1ccc(-c2cncc(CN3CC[Si](C)(C)CC3)c2)cc1	microbial growth	resazurin	H37RV	–	–	0.5 to 1 µg/mL
O=c1c2ccccc2[se]n1-c1ccccc1F	microbial growth	resazurin	H37RV	–	–	25 µg/mL
Cc1c(Cc2ccc(S(C)(=O)=O)cc2)c(=O)n2c([nH]c3ccccc32)c1C#N	microbial growth	resazurin	H37RV	–	–	1 µg/mL
COc1cc(OC)cc(-c2ccc(C(=O)NCc3c(C)c4ccccc4[nH]c3=O)cc2)c1	microbial growth	resazurin	H37RV	–	–	> 50 µg/mL
CC(NC(=O)c1cc2c(F)cc(F)cc2[nH]1)C12CC3CC(CC(C3)C1)C2 (centres unmarked)	–	microplate alamarBlue	H37Rv	–	–	0.25 µg/mL
N#Cc1cc2cccnc2nc1N1CCN(CC(=O)Nc2ccc(F)cc2)CC1	–	microplate Alamar Blue	H37Rv	–	–	64 µM
Cc1c2c([nH]c(=O)c1CNC(=O)c1ccc(F)nc1)CCCC2	microbial growth	resazurin	H37RV	–	–	> 50 µg/mL
CC[C@@H](CO)NCCN[C@@H](CC)CO	microbial growth	resazurin	H37RV	7 days	–	1.56 µg/mL
COc1cc(OC)cc(-c2ccc(C(=O)NCc3c(C)cc(C4CC4)[nH]c3=O)cc2)c1	microbial growth	resazurin	H37RV	–	–	> 20 µg/mL
N#Cc1cc2cccnc2nc1N1CCN(C(=O)c2ccc([N+](=O)[O-])o2)CC1	–	microplate Alamar Blue	H37Rv	–	–	16.5 µM
Cc1[nH]c(=O)c(CNS(=O)(=O)c2ccc(C(F)(F)F)nc2)c2c1CCCC2	microbial growth	resazurin	H37RV	–	–	3.5 µg/mL
Cc1cc(=O)[nH]c2c1C(=O)c1c(CCCCCCCC(C)C)cc(=O)[nH]c1C2=O	–	Microplate Alamar Blue	H37Rv	–	replicating bacteria	0.07 µg/mL

Some of these lines once more:
SMILES	effect on	technique	strain	time	notes	MIC
CC1=NN(CNC(=O)c2ccccc2)C(=O)C1=NNn1c(-c2ccccc2)nc2ccccc2c1=O	microbial growth	resazurin	H37RV	–	–	6.49 µM
CC(NC(=O)c1cc2ccccc2[nH]1)C12CC3CC(CC(C3)C1)C2 (centres unmarked)	–	microplate alamarBlue	H37Rv	–	–	2 µg/mL
CCCCNc1oc2c(c1-c1ccc(Cl)cc1)C(=O)c1ccccc1C2=O	–	resazurin microplate	H37Rv	7 days + 24 h	–	84 µM
O=C1c2ccccc2NC(c2cc([N+](=O)[O-])ccc2O)N1/N=C/c1cc([N+](=O)[O-])ccc1O (centres unmarked)	microbial growth	–	ATCC25177 H37RA	–	–	142 µM
Cc1c(Cc2ccc([S+](C)[O-])cc2)c(=O)n2c([nH]c3ccccc32)c1C#N (centres unmarked)	microbial growth	resazurin	H37RV	–	–	2 µg/mL
